Experimental data from different studies.
A part holds a random share of what one study measured.

Study 1 — technique: protein-binding microarray; molecule type: double-stranded DNA, one strand shown; sample: in vitro; concentration: 940 nM top; notes: 60-bp whole probe; together with: salmon DNA 0.4 mg/ml; reference: random background probes; reading: higher = stronger binding; quantity: fitted relative affinity; constant ends, left off below: GCCTAGCAC … GTCTTGATTCGCTTGACGCTGCTG
Target: Interferon regulatory factor 5, full length, phosphomimetic (IRF5, Homo sapiens, UniProt Q13568-2, residues 1-514, S451D/S453D/S456D/S462D)
ATAGGACTGGGGACTGGGTTAGTGCTA: -0.298 z-score
ACTTCTCCATTTTTCTAGTCGTGCTAG: 1.32 z-score
TTAGATTTCAGTTTCGATTAGTGCTAG: 8.98 z-score
TCACATCTCACTCTAATACTGTGCTAG: 1.43 z-score
TGAGGACTGGGTCTCGGTTAGTGCTAG: 1.08 z-score
GACGATTCCAGTTTCGTGACGTGCTAG: 2.13 z-score
TTAAGTATCGACTTTCGGTTAGTGCTA: 6.17 z-score
GACGATATCTGTATCGAGACGTGCTAG: 0.607 z-score
GACCAACTGGGGTTTCGAGACGTGCTA: 1.96 z-score
TCTGTTTTCTCCATGGAAGAGTGCTAG: 1.43 z-score
GACGGTTTCAACACTGGGGACGTGCTA: 1.91 z-score

Study 2 — technique: protein-binding microarray; molecule type: double-stranded DNA, one strand shown; sample: in vitro; concentration: not given; reading: higher = stronger binding; quantity: E-score
Target: Protein C-ets-1 (ETS1, Homo sapiens, UniProt P14921, residues 1-441, full length assumed)
Notes: k-mer, scored over probes, only values ≥0.25
Target sequence (chain): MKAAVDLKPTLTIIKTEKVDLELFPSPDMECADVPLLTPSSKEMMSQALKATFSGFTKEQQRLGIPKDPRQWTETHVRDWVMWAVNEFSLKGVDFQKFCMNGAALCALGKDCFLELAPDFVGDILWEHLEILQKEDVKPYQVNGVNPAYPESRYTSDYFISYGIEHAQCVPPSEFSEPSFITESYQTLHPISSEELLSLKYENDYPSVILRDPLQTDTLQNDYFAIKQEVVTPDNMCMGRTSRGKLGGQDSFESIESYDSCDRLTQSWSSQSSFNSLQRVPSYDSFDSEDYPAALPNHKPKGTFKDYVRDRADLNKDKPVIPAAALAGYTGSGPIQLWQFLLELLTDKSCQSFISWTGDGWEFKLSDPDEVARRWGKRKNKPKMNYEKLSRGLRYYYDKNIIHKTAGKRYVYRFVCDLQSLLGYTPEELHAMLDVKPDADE
CTTCCTCC: 0.447
GGAAAACC: 0.292
CTTTCCGC: 0.396
CACCGACA: 0.258
ATGTCCTG: 0.281
CTTCCTAA: 0.291
GATGTGGA: 0.278

Study 3 — technique: protein binding microarray; molecule type: double-stranded DNA, one strand shown; sample: in vitro; concentration: not given; reference: not given; reading: higher = stronger binding; quantity: E-score
Target: Histone acetyltransferase KAT6A, winged helix 1, GST fusion (KAT6A, Homo sapiens, UniProt Q92794, residues 1-85)
Notes: 8-mer, flanks averaged, mean of 2 arrays, mostly near background
Residues (chain): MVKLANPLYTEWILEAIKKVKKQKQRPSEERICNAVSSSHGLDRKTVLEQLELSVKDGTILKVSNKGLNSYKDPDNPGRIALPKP
AAGGCCGT: 0.302
ATATTTTC: -0.0457
ACTGTTCG: -0.145
ATAGGGCC: 0.0309
ATAGCTTA: -0.131
AGTGTGAC: -0.288
TATTCGGA: -0.103
CCTTTATA: -0.209

Mixed results
PhoQ, residues 284 288 289 292 302 303 NSMLDC — fold induction (PhoP, residues 12 14 15 18 19 AQCLL (Escherichia coli, UniProt P23836); Sort-seq, measured: YFP reporter; E. coli; PhoQ-PhoP variant library, together with: 10 µM Mg2+; reference: high Mg2+ state, higher = stronger signaling): 2.4

For quick reference, copied from above (study 3):
AGTGTGAC: -0.288
AAGGCCGT: 0.302
